Measurements pooled from the literature.
Numbered parts are unrelated; each lists some results of a single study. Positions count from the first letter of the parent shown.

Set 1 — method: RNAcompete; molecule type: RNA; medium: in vitro; concentration: 20 nM; notes: 7-mer, probes averaged, single round; reference: mean of 7-mers; reading: higher = stronger binding
Target: PABPC1L2, full length, GST fusion (mouse, UniProt A0ABA7IW68)
Target sequence (chain): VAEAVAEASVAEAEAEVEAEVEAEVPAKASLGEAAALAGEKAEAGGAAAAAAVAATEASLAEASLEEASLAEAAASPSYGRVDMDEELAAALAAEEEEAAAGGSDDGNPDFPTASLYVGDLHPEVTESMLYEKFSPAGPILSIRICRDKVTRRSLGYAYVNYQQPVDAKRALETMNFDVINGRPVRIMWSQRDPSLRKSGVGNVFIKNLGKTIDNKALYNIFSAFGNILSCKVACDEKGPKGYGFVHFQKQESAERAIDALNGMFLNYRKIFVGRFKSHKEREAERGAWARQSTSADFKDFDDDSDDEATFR
`UACAAGC` has a 7-mer Z-score of -0.0409.
`ACGCCAG` gave a 7-mer Z-score of -0.166.
With `UCAGUAU` the 7-mer Z-score was -0.177.
With `AAAGAUU` the 7-mer Z-score was 1.85.
For `UUUUUAU`, the 7-mer Z-score was -0.00108.
`UGGUCAG` gave a 7-mer Z-score of -0.101.
`GGCAGCA` has a 7-mer Z-score of 0.432.
`CUUAGGA` has a 7-mer Z-score of -0.137.

Set 2 — target: CCNA2, cyclin fold, Cln2 fusion (human); method: yeast growth competition, sequencing; medium: yeast; notes: strong parent motif; reference: not given; reading: higher = stronger binding
Parent: viral docking peptide; PTARRRLLHDLDT; partner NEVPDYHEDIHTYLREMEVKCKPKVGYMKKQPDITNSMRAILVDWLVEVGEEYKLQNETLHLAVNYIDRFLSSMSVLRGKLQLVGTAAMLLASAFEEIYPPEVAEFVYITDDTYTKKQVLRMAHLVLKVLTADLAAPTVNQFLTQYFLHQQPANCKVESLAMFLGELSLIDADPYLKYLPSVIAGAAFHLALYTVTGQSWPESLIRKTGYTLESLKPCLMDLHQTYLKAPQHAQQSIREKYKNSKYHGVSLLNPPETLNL
`R5A R6A L7A L8A`: “normalised enrichment score” -0.111.
For `D12A`, “normalised enrichment score” read 1.51.
`L8F`: “normalised enrichment score” 6.8.
`R6A` — result for “normalised enrichment score”: 3.25.
Under “normalised enrichment score”, `H9A` is recorded as 3.95.
Under “normalised enrichment score”, `T13A` is recorded as 3.63.
Under “normalised enrichment score”, `L11A` is recorded as 2.26.
`L8A` — result for “normalised enrichment score”: 0.851.
`R5K H9F`: “normalised enrichment score” 6.13.

Set 3 — target: inorganic phosphate, free oxyanion; method: microfluidic competitive inhibition; medium: in vitro, cell-free expressed; concentration: not given; reading: lower = stronger binding
Notes: derived from inhibition constants, unchanged parent 615000 nM
Parent: PafA, mature enzyme, eGFP fusion (Elizabethkingia meningoseptica, UniProt Q9KJX5); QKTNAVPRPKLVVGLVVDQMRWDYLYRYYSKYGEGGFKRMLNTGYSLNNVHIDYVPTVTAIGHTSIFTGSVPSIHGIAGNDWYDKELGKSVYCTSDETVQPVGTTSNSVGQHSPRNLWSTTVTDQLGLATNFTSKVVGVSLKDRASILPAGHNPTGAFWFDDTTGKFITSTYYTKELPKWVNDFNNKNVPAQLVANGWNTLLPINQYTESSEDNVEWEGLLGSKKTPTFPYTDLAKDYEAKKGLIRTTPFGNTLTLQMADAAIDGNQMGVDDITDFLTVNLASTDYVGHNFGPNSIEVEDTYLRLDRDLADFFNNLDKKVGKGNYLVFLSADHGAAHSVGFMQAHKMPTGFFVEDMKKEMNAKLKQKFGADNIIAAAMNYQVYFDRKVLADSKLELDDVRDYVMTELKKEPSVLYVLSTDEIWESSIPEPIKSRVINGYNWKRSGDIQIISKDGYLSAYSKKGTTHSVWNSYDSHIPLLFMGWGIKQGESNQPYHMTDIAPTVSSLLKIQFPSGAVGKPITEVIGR
`R21V`: “phosphate dissociation constant” 348 µM.
`L326G` — result for “phosphate dissociation constant”: 488 µM.
Under “phosphate dissociation constant”, `Y439G` is recorded as 540 µM.
For `A145V`, “phosphate dissociation constant” read 2640 µM.
Under “phosphate dissociation constant”, `A282V` is recorded as 793 µM.
Under “phosphate dissociation constant”, `A60V` is recorded as 1070 µM.
`N294G` — result for “phosphate dissociation constant”: 403 µM.
`L414G` — result for “phosphate dissociation constant”: 339 µM.
`D183G` — result for “phosphate dissociation constant”: 686 µM.
Under “phosphate dissociation constant”, `L417V` is recorded as 661 µM.
`P227V`: “phosphate dissociation constant” 453 µM.
`P101G`: “phosphate dissociation constant” 556 µM.
`D473V` — result for “phosphate dissociation constant”: 215 µM.
`N205G`: “phosphate dissociation constant” 610 µM.
`G88A` — result for “phosphate dissociation constant”: 537 µM.
For `S457G`, “phosphate dissociation constant” read 507 µM.
`D23G` — result for “phosphate dissociation constant”: 304 µM.

Set 4 — method: protein-binding microarray; molecule type: double-stranded DNA, one strand shown; medium: in vitro; concentration: not given; reading: higher = stronger binding
Target: Protein C-ets-1 (ETS1, Homo sapiens, UniProt P14921, residues 1-441, full length assumed)
Notes: k-mer, scored over probes, only values ≥0.25
Residues (chain): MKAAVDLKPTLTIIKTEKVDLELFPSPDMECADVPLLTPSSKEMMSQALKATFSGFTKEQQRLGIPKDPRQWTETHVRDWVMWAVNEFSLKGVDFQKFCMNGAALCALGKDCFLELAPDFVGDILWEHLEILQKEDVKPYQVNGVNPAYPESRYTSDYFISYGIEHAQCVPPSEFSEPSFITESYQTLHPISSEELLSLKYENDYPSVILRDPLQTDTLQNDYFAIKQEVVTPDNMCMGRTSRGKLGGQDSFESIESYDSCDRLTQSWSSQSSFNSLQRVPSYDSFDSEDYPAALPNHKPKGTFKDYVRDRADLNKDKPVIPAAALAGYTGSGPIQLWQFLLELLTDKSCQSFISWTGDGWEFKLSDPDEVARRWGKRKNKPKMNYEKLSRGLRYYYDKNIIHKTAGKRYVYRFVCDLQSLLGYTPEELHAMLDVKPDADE
For `CGGACGTA`, the E-score was 0.42.
`CTACTTCC` has an E-score of 0.465.
`GTCCGGGA` gave an E-score of 0.289.
For `GCTTATCC`, the E-score was 0.258.
`ACGACGGA` has an E-score of 0.307.
With `CAAACGGA` the E-score was 0.28.
For `ACGGAACT`, the E-score was 0.386.
For `CGGATATC`, the E-score was 0.462.

Repeated from above (set 1):
`UACAAGC` has a 7-mer Z-score of -0.0409.
`ACGCCAG` gave a 7-mer Z-score of -0.166.
With `UCAGUAU` the 7-mer Z-score was -0.177.
With `AAAGAUU` the 7-mer Z-score was 1.85.
